Measurements gathered from unrelated publications.
Each numbered part is a random draw from the data of one study; scales do not carry over between parts.

Block 1
Target: RNA binding protein fox-1 homolog 2, RRM domain, GST-SBP tag (RBFOX2, Homo sapiens, UniProt O43251-10, residues 100-194)
Technique: RNA Bind-n-Seq
Molecule type: RNA
Matrix: in vitro
Tested at: 365 nM
Notes: natural RNA segment, single round, ends assumed
Reference: no-protein control
Reading: higher = stronger binding
Constant ends, left off below: GGGAGUUCUACAGUCCGACGAUC … UGGAAUUCUCGGGUGCCAA
Construct (chain): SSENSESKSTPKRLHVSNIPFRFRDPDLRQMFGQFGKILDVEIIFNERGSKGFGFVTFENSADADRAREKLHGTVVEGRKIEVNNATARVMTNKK
Strand	RBNS enrichment (R)
UCUUACUCUGUCCACUCUUGUUCAAGUAUCUAACUCUUCUGGAAACCAAAUAGGCUUUAGAAGAGAUUAUCCUAUAUUCCUAUCAGUAUAAUACUAAAAUGUAACUUUUU	0.741
CACUUUGGGAGGCCAAGGCAGGUAGAUCACUUGAUGCCAGGAGUUCCAGACCAGGCUGGCCGACAUGGUGAAACCCCAUCUCUACUAAAAAAUAUAAAAAUUAGCCGGGC	0.436
GAGGGAAGGGAUUUUGAGUCACAUUAGCCUCAGGUUAGUGUUUGGCUCCAGUAAUAUCUUGCCCGAAAAGUGGUCGUCUUCCAAGCAUGGUGUUCUGGGUCCCAGCCUUG	0.645
GGUCCCUCUCUGGUCUGACGCUCCCUAUAGGUUCCACCGCACGACAGCCUGUCCAUCAAAACUUGUCCUGUACCCAGGACAGUACCAGCUUCCUGUCCCCCGACCCUAAC	2.59
AGCAAAAGUUGGGGAGAGGAUUUUGUUGUUUGCCUAGACUAGUCCUGAGGGAAGAAACACCACGUCACAGUCACGAUGUCUGCCUUACUGGCUUCCCCAGGGAAGGAAAA	0.694
GUGAUUAUGGAGAUGAUUGGCUCCAUAUUCCACCACGUCAUUCCUUCAACUCACCAGACACCUUUCUUUAGUUGAAAUAAACCAGCAUGACCUGGAGAUCAUGGUGACUG	0.945
AGCUCGCUGGCCUCGCGCUGGGCGGCUGGGAAUUCCACCUGAGAACAAGUCCCGCAAACCGGGGACGGAAGGACAUUUGACUUUUAUUUUUGUAUUUAAUUGACAUGAAU	0.634
AGAAAUUUCUAAGCAGCAAAGCAUUCAUGAGGUGACUUGGGUGCUGUUAAAAGCAUUCAGUUUUAAAAGGGAAACAGACUAUAAAAGUUUGGAAAAUUUGCAGCCUGAUG	0.426
UCUCUUAGAUUGAAGUGACAGAAUCUGAAAGAAAAGAAUAUGAUUGAGCUAUUUGUUUUCCUGAACACCUCACCUUUUAUGAUGCAAUAAGUUACUCUGAGUUUCUUGGC	0.999
CUGUUGAUGCUUCUUUGAAAAUCUUCGCUUGAUUUUGGCUGUAAAUCACCUACCCUGUUAAAUGCUGUUUAAUCCCAAGGAUGUAAGUUGAGGUGAGGUGUCUUCUCUGU	0.344
GCACCUAGAAGGGACAGAGGGUGGGGCUACCUGCUAUCAGGCAUGAACAUGUGAAUUGCUGGUUAGUAGGUGGUAUGCCUUGGGCACAUGUCACAUCUAAAUGCUGCUGG	0.805
CCCACAGACUGAACCUUUCGCCAGAAGCUGUCCUUAUAACGCCUUAUACGCAUACACAGCCAGGAAACGUGGAGCAUUGUUUCUCACAGAGAGUCUCCAAAUAAAAAGGG	0.36

Block 2
Target: Interferon regulatory factor 3, full length, phosphomimetic (IRF3, Homo sapiens, UniProt Q14653, residues 1-427, S386D/S396D/S398D/S402D/T404D/S405D)
Sequence of UniProt Q14653 (whole entry, unmodified, looked up): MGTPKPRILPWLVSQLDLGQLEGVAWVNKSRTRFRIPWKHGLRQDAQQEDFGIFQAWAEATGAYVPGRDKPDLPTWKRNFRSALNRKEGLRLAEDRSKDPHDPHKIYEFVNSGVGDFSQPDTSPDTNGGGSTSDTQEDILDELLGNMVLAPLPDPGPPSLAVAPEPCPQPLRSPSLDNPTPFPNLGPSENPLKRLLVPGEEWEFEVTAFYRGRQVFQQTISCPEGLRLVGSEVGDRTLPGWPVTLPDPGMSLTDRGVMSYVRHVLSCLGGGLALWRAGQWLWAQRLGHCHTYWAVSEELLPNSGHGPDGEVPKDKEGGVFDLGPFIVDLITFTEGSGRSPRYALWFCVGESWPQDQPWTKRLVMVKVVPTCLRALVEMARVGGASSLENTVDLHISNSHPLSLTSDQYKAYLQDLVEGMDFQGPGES
Technique: protein-binding microarray
Molecule type: double-stranded DNA, one strand shown
Matrix: in vitro
Tested at: 2540 nM top
Notes: 60-bp whole probe
Added: salmon DNA 0.4 mg/ml
Reference: random background probes
Reading: higher = stronger binding
Constant ends, left off below: GCCTAGCAC … GTCTTGATTCGCTTGACGCTGCTG
Strand	fitted relative affinity [z-score]
GACGGACTGGACTTTCGGGACGTGCTA	0.0475
GACGCTCTCCTTCTCCTGACGTGCTAG	2.7
TTAGATCTCGGTATCGATTAGTGCTAG	1.09
TTAGGTTGCGGGTTTCGGTTAGTGCTA	4.2
TTAGGACTGGGACTGTGTTAGTGCTAG	-0.922
GATTTCTTCCCTGTGAAAACGTGCTAG	1.36
GACGGTATCCCTATCCTGACGTGCTAG	4.18
TGAGGACTGGACTTTCGGTTAGTGCTA	0.889
GACGGTATCGAACTGGGGACGTGCTAG	0.506
CTCTTTTTGCTTTCTTTATGGTGCTAG	2.65
GACGGTTTCGGGTTTCGGGTCGTGCTA	6.06
TCATTTTGTGTTTTCATACTGTGCTAG	2.15
TAACTTTTTTTTTTCCCTGAGTGCTAG	1.18
TTAAGACTGCTTCTCCTTTAGTGCTAG	-0.162
TTAGGACTGCTTCACCTTTAGTGCTAG	-0.122
CAGTTTTCCTATGTCATTTAGTGCTAG	3.73
GACGATTTCGGGTATCCAGACGTGCTA	2.1

Block 3
Target: Eukaryotic initiation factor 4A-I (EIF4A1, Homo sapiens, UniProt P60842, residues 1-406, full length assumed)
Sequence of UniProt P60842 (whole entry, looked up): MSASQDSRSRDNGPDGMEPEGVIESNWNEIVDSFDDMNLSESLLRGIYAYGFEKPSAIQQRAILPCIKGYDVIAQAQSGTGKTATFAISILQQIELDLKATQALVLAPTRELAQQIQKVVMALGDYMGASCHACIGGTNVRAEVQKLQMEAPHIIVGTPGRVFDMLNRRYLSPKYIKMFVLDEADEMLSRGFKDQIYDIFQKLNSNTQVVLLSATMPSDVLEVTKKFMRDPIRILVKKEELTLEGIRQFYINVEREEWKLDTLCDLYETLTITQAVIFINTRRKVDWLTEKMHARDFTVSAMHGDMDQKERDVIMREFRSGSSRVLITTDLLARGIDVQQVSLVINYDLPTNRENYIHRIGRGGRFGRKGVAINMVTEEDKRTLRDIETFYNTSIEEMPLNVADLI
Technique: RNA Bind-n-Seq
Molecule type: RNA
Matrix: in vitro
Tested at: 90 pmol
Notes: 4-mer, random 30-nt RNA, single round
Added: 3 µM DMDA-PatA, 2 mM ADP, 2 mM phosphate
Reference: input library
Reading: higher = stronger binding
Strand	4-mer enrichment [fold]
GUGC	1.3
UGUC	0.718
CAAG	0.983
GGUG	1.83
UAAU	0.998
GGGC	1.2
AGCG	1.78
AUUU	1.06
GGCC	0.59
GCGG	1.53
UCGA	0.666
UGCC	0.567
GAGC	1.12
AAUU	1.04
CAGG	0.879
ACGC	0.683
AUGA	1.04
GGUC	0.673
GUGA	1.78
CCUU	0.576
CGCC	0.639
ACAG	0.91
AUAG	1.01
CACC	0.65

Block 4
Target: Sal-like protein 4, full length isoform A (SALL4, Homo sapiens, UniProt Q9UJQ4, residues 1-1053)
Sequence of UniProt Q9UJQ4 (whole entry, looked up): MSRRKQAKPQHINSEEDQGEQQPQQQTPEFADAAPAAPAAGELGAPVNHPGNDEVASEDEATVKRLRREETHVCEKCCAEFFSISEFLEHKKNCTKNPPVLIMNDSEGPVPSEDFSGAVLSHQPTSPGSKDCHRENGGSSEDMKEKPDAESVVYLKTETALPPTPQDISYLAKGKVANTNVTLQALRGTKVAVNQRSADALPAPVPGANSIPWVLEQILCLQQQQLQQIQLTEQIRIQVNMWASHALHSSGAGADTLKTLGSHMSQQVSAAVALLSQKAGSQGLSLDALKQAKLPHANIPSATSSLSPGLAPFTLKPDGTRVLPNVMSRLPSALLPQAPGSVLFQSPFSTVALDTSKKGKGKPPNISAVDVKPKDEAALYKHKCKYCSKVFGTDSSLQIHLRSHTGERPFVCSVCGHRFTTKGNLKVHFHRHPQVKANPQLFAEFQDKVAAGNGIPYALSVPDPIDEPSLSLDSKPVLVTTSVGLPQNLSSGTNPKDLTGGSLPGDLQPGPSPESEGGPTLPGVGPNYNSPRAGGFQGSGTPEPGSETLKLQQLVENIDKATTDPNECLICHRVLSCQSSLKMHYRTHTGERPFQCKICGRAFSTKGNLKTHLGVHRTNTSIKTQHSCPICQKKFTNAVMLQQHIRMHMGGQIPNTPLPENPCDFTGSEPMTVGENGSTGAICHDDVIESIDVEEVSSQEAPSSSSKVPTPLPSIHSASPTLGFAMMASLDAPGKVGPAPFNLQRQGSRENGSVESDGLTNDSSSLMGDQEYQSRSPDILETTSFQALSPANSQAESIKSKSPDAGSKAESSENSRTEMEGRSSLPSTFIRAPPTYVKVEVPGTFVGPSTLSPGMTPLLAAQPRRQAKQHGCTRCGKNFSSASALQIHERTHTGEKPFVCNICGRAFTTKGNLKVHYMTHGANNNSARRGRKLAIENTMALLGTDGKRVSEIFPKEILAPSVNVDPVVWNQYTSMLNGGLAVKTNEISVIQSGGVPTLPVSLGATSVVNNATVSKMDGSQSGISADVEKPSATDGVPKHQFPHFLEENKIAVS
Technique: universal PBM
Molecule type: double-stranded DNA, one strand shown
Matrix: in vitro
Tested at: 600 nM
Notes: 8-mer, flanks averaged, mean of replicates
Reading: higher = stronger binding
Strand	E-score
AGAGACCA	-0.107
ACTATAAT	0.379
GTGAACTA	0.166
CCGACTAA	-0.054
CTTACAGC	0.0604
ACATCTGC	-0.0711
CCAAGGTA	-0.0483
GTACCCGA	-0.262
GGATGGAA	-0.033
GTGTTCAA	0.0991
CCACCGCA	-0.196
GAATGTCC	-0.0667
CATCCGGG	-0.32
TAGCGCGA	-0.119
CAGAGAGA	-0.155
AAGTGTGA	0.0573
CAGAATGC	-0.000135
ACGACCTC	-0.0603
ATAAATGC	0.255
ATCGCGTG	-0.0694

Block 5
Target: Ras GTPase-activating protein-binding protein 1, RRM domain (G3BP1, Homo sapiens, UniProt Q13283)
Sequence of UniProt Q13283 (whole entry, looked up): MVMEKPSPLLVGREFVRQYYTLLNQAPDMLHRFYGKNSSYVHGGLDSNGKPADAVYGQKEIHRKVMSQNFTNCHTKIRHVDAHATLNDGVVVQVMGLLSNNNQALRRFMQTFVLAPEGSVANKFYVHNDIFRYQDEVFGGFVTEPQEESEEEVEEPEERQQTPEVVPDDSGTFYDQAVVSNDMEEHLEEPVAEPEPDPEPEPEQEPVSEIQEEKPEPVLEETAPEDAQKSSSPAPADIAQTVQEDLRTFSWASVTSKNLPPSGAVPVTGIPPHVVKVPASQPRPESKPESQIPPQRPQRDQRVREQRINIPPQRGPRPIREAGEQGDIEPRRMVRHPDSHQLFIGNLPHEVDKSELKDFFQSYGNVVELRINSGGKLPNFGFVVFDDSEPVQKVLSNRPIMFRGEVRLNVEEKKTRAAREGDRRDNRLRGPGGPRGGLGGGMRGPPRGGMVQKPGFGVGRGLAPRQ
Technique: RNA Bind-n-Seq
Molecule type: RNA
Matrix: in vitro
Tested at: 1 µM
Notes: whole 134-nt RNA, ends assumed
Added: 150 mM KCl
Reference: input library
Reading: higher = stronger binding
Constant ends, left off below: GGGAGUUCUACAGUCCGACGAUC … UGGAAUUCUCGGGUGUCAAGG
Strand	log2 enrichment
CCUGUGCUACACAUCGUAUGUACCGAAUCGGUUUUUUUGGGGUUUUUUUGGGUUUUUUUGGAAAGUAUUAUGUUACGCCGUUCGGAUCUG	-0.137
CAAGUCCUGUGCUACACAUCGUAUGUACCGAAUCGGAGGUUUUUGGAAAAAAAGGAAAGUAUUAUGUUACGCCGUUCGGAUCUGCACUUC	-0.173
CUGUGCUACACAUCGUAUGUACCGAAUCGGGGAAAAAAAGGGGUUUUUGGGGUUUUUGGGGAAAGUAUUAUGUUACGCCGUUCGGAUCUG	1.02
CAAGUCCUGUGCUACACAUCGUAUGUACCGAAUCGGUUUUUGGUUUGGUUUUUGGAAAGUAUUAUGUUACGCCGUUCGGAUCUGCACUUC	-0.285
CAAGUCCUGUGCUACACAUCGUAUGUACCGAAUCGGGAAAGGGAAAGGGGAAAGGAAAGUAUUAUGUUACGCCGUUCGGAUCUGCACUUC	-0.255
CUGUGCUACACAUCGUAUGUACCGAAUCGGGGUUUUUUUGGGUUUUUUUGGGGUUUUUUUGGAAAGUAUUAUGUUACGCCGUUCGGAUCU	-0.212
AAGUCCUGUGCUACACAUCGUAUGUACCGAAUCGGGGUUUGGGGAGGGGAAAGGGGAAAGUAUUAUGUUACGCCGUUCGGAUCUGCACUU	1
UUUGACGCGGUGUGUUACGUGGGGGAGAGAAUAAAACUCCAGCGAGAUCCGGGCCGUGAACGAAAGCAGUGACGGAGGAGCUUGUACCAC	0.0421
GCUGUGACCCCAACGCCGGUGCCCGUGGUCGGGAGCCAGAUGACCAGACAAGCCCGGCGCCUCUACGUGGGCAACAUCCCCUUUGGCAUC	-0.354
AGUCCUGUGCUACACAUCGUAUGUACCGAAUCAAAUUUAAAUUUUUAAACCCCCAAAAAAGUAUUAUGUUACGCCGUUCGGAUCUGCACU	-1.27
CUCAAGUCCUGUGCUACACAUCGUAUGUACCGAAUCGGAGGUUUUUGGUUUGGAAAGUAUUAUGUUACGCCGUUCGGAUCUGCACUUCCA	-0.367
CAUCCUUUGGGCCCCUCAAGGCCUUCAACCUGGUCAAGGACAGUGCCACGGGGCUCUCCAAGGGCUACGCCUUCUGUGAGUACGUGGACA	-0.809
GUCCUGUGCUACACAUCGUAUGUACCGAAUCAAAUUUAAAUUUUUAAACCCCCCCAAAAAAGUAUUAUGUUACGCCGUUCGGAUCUGCAC	-0.92
GUCCUGUGCUACACAUCGUAUGUACCGAAUCGGGGAAAAAGGGAAAAAGGGGAAAAAGGAAAGUAUUAUGUUACGCCGUUCGGAUCUGCA	-0.00268

For quick reference, copied from above (block 3):
Strand	4-mer enrichment [fold]
GUGA	1.78
CCUU	0.576
CGCC	0.639
ACAG	0.91
AUAG	1.01
